# Published values from different studies.
# Numbered parts are unrelated; each lists some results of a single study. Changes are numbered by the printed parent chain.

# Sample 1 — technique: DHFR PCA, deep sequencing; matrix: yeast; added: (+)-ABA 710 µM; baseline: wild-type fitted maximum; reading: higher = stronger binding
# Target: ABI1, truncated, D143A, DHFR fusion (Arabidopsis thaliana)
# Notes: methotrexate growth selection, single substitutions
# Starting sequence: PYL1, truncated, DHFR fusion (Arabidopsis thaliana); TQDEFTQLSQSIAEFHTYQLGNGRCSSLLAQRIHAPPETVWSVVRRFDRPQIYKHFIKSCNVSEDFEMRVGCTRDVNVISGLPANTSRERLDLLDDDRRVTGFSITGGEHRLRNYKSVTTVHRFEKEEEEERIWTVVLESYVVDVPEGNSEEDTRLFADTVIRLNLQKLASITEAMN; partner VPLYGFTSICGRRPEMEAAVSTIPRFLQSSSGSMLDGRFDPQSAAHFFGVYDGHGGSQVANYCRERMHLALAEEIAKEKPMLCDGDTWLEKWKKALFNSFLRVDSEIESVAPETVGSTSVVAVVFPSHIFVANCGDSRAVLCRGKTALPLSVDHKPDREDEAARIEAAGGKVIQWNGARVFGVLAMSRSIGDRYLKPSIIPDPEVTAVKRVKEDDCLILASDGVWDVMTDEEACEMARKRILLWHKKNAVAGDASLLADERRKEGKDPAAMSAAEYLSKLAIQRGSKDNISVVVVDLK
Change,relative binding score [%]
S117K,16
R99Q,114
Q7N,107
A35W,23.9
V142T,101
F56Y,98.2
D92A,82.1
R163P,-6.44
F47Y,83.3
H55Q,115
L94F,99.5
L156T,105
T101H,93.9
E174R,93.7
K58N,97.3
R90V,96.2
E130V,109
L94P,2.73

# Sample 2 — technique: RNA Bind-n-Seq; molecule type: RNA; matrix: in vitro; concentration: 200 nM; notes: whole 134-nt RNA, ends assumed; added: 150 mM LiCl; baseline: input library; reading: higher = stronger binding; each molecule: 7-deaza-guanosine replaces G
# Target: Fragile X messenger ribonucleoprotein 1, C-terminal low-complexity region (Fmr1, Mus musculus, UniProt P35922)
# Shared flanks, not repeated: GGGAGUUCUACAGUCCGACGAUC … UGGAAUUCUCGGGUGUCAAGG
Strand,log2 enrichment
ACCAUGCAGGUGGGCAUCUUUGGGAAGUGGGGCAAGGGGGGGAUAGGGAGGGGGGUAACACUUUGGGAACAGGUGGUCCCAGGUCGUUUA,1.28
CUCAAGUCCUGUGCUACACAUCGUAUGUACCGAAUCGGAAGGAAGGGAAGGGGAAAGUAUUAUGUUACGCCGUUCGGAUCUGCACUUCCA,-0.0752
CUCAAGUCCUGUGCUACACAUCGUAUGUACCGAAUCGGAAAGGUUUUUGGUGGAAAGUAUUAUGUUACGCCGUUCGGAUCUGCACUUCCA,-0.195
GUCCUGUGCUACACAUCGUAUGUACCGAAUCGGGGAGGGGAAAGGGGAAAAAAAGGGGAAAGUAUUAUGUUACGCCGUUCGGAUCUGCAC,1.51
AAGUCCUGUGCUACACAUCGUAUGUACCGAAUCGGGAGGGUUUGGGAAAAAAAGGGAAAGUAUUAUGUUACGCCGUUCGGAUCUGCACUU,-1.4
CCUCAAGUCCUGUGCUACACAUCGUAUGUACCGAAUCGGUUUGGUUUGGAGGAAAGUAUUAUGUUACGCCGUUCGGAUCUGCACUUCCAG,-0.519
GUCCUGUGCUACACAUCGUAUGUACCGAAUCGGGGUUUUGGGGUUUUGGGGUUUUGGGAAAGUAUUAUGUUACGCCGUUCGGAUCUGCAC,-0.337
CAAGUCCUGUGCUACACAUCGUAUGUACCGAAUCGGGCCCCGGCCCCGGCCCCGGGAAAGUAUUAUGUUACGCCGUUCGGAUCUGCACUU,-1.37
CAAGUCCUGUGCUACACAUCGUAUGUACCGAAUCGGUUUUGGUUUUGGUUUUGGGAAAGUAUUAUGUUACGCCGUUCGGAUCUGCACUUC,-1.42
ACCAUGCAGGUGGGCACCUUUGGGAAGUGGGGCAAGGGGGGGAUAGGGAGGGGGGUAACACUUUGGGAACAGGUGGUCCCAGGUCGUUUC,1.61
UGGGAAGUGGAUUUUGUUUAUUUUUUUAGCUCAUUUCCAGGGGUGGGAAUUUUUUUUUAAUAUGUGUCAUGAAUAAAGUUGUUUUUGAAA,-0.211

# Sample 3 — technique: protein-binding microarray; molecule type: double-stranded DNA, one strand shown; matrix: in vitro; concentration: 2540 nM top; notes: 60-bp whole probe; added: salmon DNA 0.4 mg/ml; baseline: random background probes; reading: higher = stronger binding; shared flanks, not repeated: GCCTAGCAC … GTCTTGATTCGCTTGACGCTGCTG
# Target: Interferon regulatory factor 3, full length, phosphomimetic (IRF3, Homo sapiens, UniProt Q14653, residues 1-427, S386D/S396D/S398D/S402D/T404D/S405D)
# UniProt Q14653, sequence (whole entry, unmodified, looked up): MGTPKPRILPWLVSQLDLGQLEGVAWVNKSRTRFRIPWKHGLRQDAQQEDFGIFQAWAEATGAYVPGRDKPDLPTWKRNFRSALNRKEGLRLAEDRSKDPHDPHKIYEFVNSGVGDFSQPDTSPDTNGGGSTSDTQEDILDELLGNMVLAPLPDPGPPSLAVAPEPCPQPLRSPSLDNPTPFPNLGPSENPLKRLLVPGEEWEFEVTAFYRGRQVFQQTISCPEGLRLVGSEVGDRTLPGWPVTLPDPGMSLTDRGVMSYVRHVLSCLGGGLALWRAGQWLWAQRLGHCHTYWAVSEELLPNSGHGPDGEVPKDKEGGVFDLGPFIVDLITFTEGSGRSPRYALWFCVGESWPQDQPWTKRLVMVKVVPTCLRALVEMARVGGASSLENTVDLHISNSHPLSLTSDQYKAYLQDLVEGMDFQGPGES
Strand,fitted relative affinity [z-score]
TTAGAGCTCAGACTGGATTAGTGCTAG,-0.468
TTCGGTATCCTACTGCTTTAGTGCTAG,3.01
GACGGTTTCGGGCTGGGGACGTGCTAG,2.98
CTGCTGGCCTGTTGCTGGAAGTGCTAG,-0.638
TTTTCATTATTGTGTCAACTTGTGCTA,2.96
TCAGTTCACTATTTAAGACTGTGCTAG,1.83
ATGGCTTTGCAGATAAATATGTGCTAG,-0.65
GACGGTTTCCTACTACTGACGTGCTAG,5.71
GACGATTTCATTATCGAGACGTGCTAG,2.46
GACGGTTACCTTTTCCTGACGTGCTAG,5.87
TTAGATTTCGGCACTGGATTAGTGCTA,0.476
TTAGATCTCAGTCTCGATGAGTGCTAG,0.35
TTAGGTATCGGGGTTCGGTTAGTGCTA,0.774
GACGGTATCCTTTCCCTGACGTGCTAG,7.12
TCAGCTTCCTAATTCTCACTGTGCTAG,1.63
ATATATATATTATATATTTATGTGCTA,0.681
CTTAACCTGGGTCTCTGAAGGTGCTAG,0.212
TCAAAAATGATTTTTTTACTGTGCTAG,0.0494
GACGGTTTCGGGTTCCGGGACGTGCTA,5.06
GACGATTTCAGACTGGATACGTGCTAG,1.17
GACGGTATCCTTATCCTCACGTGCTAG,5.04
TTAGATTTCAGTATCGATGAGTGCTAG,2.22
TCACTTCTCAATTAAAAACTGTGCTAG,2.07
TCATCTCTGGACTGTGTGACTGTGCTA,0.451
TTTTTTATCAATCATTTTCGTGTGCTA,1.51

# Sample 4 — technique: RNA Bind-n-Seq; molecule type: RNA; matrix: in vitro; concentration: 100 nM; notes: RNA with constant flanks, ends assumed; baseline: input RNA pool; reading: higher = stronger binding
# Target: RING finger protein unkempt homolog, zinc fingers 1-6, SBP tag (UNK, Homo sapiens, UniProt Q9C0B0, residues 30-357)
# UniProt Q9C0B0, sequence (30-357, looked up): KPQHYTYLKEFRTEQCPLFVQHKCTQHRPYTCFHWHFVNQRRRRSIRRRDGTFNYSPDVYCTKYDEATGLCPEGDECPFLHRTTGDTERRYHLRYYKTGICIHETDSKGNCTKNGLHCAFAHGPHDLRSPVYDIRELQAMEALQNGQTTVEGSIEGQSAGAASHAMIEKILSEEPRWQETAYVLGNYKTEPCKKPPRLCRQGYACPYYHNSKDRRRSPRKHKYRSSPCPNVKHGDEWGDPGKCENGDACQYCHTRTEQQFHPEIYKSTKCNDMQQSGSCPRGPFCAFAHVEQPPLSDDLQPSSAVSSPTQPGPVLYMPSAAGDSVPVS
Strand,bound/input enrichment [ratio]
GGGAGUUCUACAGUCCGACGAUCUUCAGGCACAACUGACUGGUUCACAGCACUCCUUACACCGUUAUCUAUCAAAUUCAAGUGCCGUUAAUUUUCAGGAAACAACCAGGCAGUCAUCUUUAUCCUGCCGCCCAAUUGGAGAUUCAACAGAGGAUUGAGCAUCA,0.712
GGGAGUUCUACAGUCCGACGAUCACAUGCCACUGUCACCAAAACAAACAACUACCACUUUCCAAAUUUCAUUCAGAACCAUUUCCGUGUUUUCCUAUUCCCUACCCCUCCCACUACUUUCAAUGAUGAAAUACCCUAAGUUAACAACAGAGGAUUGAGCAUCA,3.79
GGGAGUUCUACAGUCCGACGAUCGCUCCCGUUCUUAACAACCGACACUCCUACAAGAUUCCGAAAAAAGUUUACAACAUAAUCCCGUUUACAGAAAAAUCUUGUGCCCGAAUACUUUUUAAAAGGUAUUUUGAAUACCAUUAACAACAGAGGAUUGAGCAUCA,0.459

# Sample 5 — technique: protein binding microarray; molecule type: double-stranded DNA, one strand shown; matrix: in vitro; concentration: not given; baseline: not given; reading: higher = stronger binding
# Target: Histone acetyltransferase KAT6A, winged helix 2, GST fusion (KAT6A, Homo sapiens, UniProt Q92794, residues 85-181)
# Notes: 8-mer, flanks averaged, mean of 2 arrays, mostly near background
# Residues (chain): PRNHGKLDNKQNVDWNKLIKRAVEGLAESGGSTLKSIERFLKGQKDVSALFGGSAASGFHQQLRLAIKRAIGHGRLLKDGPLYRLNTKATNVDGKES
Strand,E-score
CCCCCGTC,-0.0697
GCATAGAA,0.16
AGCCTGAT,0.0944
AACCGTCG,0.0676
ACAGTGTC,-0.149
CCCTCCAA,-0.0856
AGGAGTCG,-0.213
CTACCCAA,-0.085
TAGCTGGA,-0.0191
CATGAATG,-0.25
GCCAGGAA,-0.00831
TCAAACGA,0.16
CACGCTCC,-0.0285
CTAAGACC,-0.0729
ATTCGGGC,0.0522
TCTTTGAA,-0.0249

# Sample 6 — technique: universal PBM; molecule type: double-stranded DNA, one strand shown; matrix: in vitro; concentration: 600 nM; reading: higher = stronger binding
# Target: Sal-like protein 4, full length isoform A (SALL4, Homo sapiens, UniProt Q9UJQ4, residues 1-1053)
# UniProt Q9UJQ4, sequence (whole entry, looked up): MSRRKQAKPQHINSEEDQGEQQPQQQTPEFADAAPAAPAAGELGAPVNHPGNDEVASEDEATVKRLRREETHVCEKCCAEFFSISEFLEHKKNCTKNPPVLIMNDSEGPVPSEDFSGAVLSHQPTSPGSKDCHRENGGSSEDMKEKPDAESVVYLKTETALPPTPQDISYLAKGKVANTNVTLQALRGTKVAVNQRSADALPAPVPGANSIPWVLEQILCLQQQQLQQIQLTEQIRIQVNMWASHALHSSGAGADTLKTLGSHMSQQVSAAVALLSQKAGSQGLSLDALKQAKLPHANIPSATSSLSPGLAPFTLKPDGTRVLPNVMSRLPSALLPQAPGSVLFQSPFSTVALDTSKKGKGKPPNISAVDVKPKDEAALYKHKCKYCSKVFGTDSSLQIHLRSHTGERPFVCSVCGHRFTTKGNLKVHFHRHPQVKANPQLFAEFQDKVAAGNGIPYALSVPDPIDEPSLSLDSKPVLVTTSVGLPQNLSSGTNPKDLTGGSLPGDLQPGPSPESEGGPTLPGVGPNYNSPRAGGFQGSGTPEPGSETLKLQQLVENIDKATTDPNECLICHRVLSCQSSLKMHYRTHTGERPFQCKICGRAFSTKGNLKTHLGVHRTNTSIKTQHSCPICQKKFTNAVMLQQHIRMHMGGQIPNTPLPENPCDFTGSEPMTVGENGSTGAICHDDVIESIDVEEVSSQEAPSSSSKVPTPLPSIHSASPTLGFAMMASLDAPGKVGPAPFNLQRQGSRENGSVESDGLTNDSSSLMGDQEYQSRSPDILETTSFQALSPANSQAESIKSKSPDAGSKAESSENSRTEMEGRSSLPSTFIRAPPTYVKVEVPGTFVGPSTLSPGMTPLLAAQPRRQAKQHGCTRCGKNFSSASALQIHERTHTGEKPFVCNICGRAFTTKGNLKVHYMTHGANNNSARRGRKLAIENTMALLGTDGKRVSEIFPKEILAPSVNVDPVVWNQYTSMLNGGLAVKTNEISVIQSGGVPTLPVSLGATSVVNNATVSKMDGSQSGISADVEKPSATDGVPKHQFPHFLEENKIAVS
# Notes: 8-mer, flanks averaged, mean of replicates
Strand,E-score
CGAACTTA,-0.0907
CCGCCTAG,-0.162
GTCAGAAC,-0.125
AAGCAAGC,0.00013
TTCAAGAA,0.278
ACTAAATG,0.17
TAAGCGCA,-0.123
AAGATTAT,0.268
CTTCCCCA,-0.202
ACCTAACG,-0.035
ACGTAGTA,0.0271
ACTCCGAC,-0.241
AATGCCTG,-0.028
GATCTAAC,0.0104
AGAGACAT,0.136
AGGTACAC,-0.114
TGTTCGAA,0.0277
AGGTGTCG,-0.288
GCATGCGC,-0.13
AGACCCAG,-0.329
TACTAAAA,0.257
ACCAATTA,0.292
AACGTATT,0.224
CCGGGTGA,-0.334
TCGGAACA,-0.0249

# For quick reference, copied from above (sample 6):
Strand,E-score
GTCAGAAC,-0.125
GCATGCGC,-0.13
AGGTACAC,-0.114
TGTTCGAA,0.0277
TTCAAGAA,0.278
ACGTAGTA,0.0271
AGGTGTCG,-0.288
AAGATTAT,0.268
TAAGCGCA,-0.123
ACTCCGAC,-0.241
ACCAATTA,0.292
AGAGACAT,0.136
